Results gathered from unrelated publications.
Parts stem from different laboratories: compare values within a part only.
Chain of UniProt P62344 (whole entry, looked up): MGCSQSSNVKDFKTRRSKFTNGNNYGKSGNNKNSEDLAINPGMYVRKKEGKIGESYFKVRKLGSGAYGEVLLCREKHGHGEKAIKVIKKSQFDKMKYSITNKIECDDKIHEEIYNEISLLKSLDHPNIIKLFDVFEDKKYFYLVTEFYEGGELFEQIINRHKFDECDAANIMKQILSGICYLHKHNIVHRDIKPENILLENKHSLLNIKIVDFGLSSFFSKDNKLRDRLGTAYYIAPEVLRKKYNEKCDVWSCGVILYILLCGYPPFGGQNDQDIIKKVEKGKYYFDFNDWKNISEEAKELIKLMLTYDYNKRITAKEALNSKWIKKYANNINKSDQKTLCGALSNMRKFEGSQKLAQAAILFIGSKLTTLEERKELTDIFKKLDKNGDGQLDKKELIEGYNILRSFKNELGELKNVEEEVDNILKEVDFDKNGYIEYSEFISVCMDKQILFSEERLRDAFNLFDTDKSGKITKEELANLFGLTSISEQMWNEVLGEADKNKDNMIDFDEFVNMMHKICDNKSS
Chain of UniProt P36897 (whole entry, looked up): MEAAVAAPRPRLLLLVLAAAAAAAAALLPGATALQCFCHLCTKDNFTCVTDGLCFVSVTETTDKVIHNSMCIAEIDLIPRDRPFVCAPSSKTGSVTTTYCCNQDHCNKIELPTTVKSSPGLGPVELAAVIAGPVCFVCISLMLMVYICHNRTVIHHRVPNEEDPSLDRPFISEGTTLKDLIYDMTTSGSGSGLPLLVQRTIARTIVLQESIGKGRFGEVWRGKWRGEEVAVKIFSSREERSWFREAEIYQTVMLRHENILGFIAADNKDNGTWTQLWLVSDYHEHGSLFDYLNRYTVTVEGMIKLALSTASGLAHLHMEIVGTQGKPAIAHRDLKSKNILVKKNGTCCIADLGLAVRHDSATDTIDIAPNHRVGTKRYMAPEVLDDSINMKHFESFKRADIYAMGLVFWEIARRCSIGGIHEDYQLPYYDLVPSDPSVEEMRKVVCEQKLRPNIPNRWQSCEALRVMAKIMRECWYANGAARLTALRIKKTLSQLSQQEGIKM
Chain of UniProt P51955 (whole entry, looked up): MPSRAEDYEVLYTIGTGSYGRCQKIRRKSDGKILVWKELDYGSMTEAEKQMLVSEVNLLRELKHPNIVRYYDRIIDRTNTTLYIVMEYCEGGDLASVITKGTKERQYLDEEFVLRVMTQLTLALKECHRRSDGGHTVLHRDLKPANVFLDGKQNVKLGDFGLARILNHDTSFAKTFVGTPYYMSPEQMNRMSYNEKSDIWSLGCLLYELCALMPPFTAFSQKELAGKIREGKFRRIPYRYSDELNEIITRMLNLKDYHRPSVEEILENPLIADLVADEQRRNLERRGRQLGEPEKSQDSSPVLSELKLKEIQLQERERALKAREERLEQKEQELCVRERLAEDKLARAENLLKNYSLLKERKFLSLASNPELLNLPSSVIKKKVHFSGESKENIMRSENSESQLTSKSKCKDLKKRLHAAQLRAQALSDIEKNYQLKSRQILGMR
Chain of UniProt O14920 (whole entry, looked up): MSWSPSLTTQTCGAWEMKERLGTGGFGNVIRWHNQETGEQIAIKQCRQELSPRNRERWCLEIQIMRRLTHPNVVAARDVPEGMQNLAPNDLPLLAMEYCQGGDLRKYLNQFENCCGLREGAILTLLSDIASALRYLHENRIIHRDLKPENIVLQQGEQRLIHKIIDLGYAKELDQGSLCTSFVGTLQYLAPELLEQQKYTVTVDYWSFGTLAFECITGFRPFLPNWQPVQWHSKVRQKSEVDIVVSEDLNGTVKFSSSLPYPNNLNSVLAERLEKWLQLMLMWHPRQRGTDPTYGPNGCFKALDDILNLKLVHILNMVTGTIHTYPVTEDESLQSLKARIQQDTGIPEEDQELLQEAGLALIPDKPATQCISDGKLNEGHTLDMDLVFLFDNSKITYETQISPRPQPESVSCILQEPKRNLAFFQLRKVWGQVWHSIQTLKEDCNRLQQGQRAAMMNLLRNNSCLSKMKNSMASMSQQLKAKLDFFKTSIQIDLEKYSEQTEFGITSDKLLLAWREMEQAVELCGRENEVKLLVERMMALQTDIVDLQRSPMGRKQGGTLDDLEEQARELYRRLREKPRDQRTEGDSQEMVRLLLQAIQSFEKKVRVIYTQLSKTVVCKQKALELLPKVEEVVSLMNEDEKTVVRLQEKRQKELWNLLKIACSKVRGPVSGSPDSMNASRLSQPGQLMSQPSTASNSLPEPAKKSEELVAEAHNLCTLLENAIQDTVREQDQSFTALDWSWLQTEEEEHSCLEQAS
Chain of UniProt P28335 (whole entry, looked up): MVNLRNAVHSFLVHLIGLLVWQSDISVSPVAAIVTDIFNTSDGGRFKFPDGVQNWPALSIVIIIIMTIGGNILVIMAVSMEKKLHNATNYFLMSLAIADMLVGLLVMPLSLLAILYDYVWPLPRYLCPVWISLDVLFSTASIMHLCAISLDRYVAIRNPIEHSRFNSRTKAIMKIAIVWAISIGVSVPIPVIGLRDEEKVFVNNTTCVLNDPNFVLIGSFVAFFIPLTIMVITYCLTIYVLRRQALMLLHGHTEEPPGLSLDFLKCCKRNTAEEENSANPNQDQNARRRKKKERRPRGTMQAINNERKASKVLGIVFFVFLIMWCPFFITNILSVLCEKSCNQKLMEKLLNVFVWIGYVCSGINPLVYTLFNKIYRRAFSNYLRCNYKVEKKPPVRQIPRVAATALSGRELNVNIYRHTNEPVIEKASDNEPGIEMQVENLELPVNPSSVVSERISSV
Chain of UniProt P61075 (whole entry, looked up): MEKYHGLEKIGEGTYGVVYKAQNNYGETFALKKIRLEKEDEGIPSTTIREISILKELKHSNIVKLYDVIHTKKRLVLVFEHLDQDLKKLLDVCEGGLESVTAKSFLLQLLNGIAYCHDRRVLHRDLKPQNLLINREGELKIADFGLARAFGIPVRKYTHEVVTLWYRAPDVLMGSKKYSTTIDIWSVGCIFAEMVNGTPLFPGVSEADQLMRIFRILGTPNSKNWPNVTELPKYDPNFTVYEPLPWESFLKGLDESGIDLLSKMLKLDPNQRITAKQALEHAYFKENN
Chain of UniProt P9WI81 (whole entry, looked up): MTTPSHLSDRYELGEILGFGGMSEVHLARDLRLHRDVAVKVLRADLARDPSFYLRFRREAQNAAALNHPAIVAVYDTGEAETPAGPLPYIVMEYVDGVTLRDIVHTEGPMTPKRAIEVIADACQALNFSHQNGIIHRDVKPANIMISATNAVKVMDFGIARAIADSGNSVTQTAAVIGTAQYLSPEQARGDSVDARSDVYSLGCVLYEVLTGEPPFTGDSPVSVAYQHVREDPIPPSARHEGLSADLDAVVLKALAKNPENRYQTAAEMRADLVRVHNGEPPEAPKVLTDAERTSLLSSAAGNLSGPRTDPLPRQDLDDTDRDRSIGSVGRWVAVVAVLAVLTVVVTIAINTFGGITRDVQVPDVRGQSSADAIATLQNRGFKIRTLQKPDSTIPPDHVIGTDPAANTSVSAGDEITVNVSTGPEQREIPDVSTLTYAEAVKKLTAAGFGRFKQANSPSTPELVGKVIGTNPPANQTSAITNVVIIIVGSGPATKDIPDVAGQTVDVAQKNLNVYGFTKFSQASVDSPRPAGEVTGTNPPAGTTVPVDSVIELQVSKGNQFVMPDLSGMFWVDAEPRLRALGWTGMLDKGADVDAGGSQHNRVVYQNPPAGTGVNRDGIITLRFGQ
Chain of UniProt Q00535 (whole entry, looked up): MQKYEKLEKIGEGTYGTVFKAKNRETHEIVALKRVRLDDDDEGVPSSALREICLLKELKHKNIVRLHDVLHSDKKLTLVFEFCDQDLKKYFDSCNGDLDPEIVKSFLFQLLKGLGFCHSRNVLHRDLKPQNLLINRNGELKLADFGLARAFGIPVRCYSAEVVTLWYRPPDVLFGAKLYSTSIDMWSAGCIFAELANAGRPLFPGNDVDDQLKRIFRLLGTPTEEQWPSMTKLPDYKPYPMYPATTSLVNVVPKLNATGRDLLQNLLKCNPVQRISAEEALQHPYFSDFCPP
Chain of UniProt Q15831 (whole entry, looked up): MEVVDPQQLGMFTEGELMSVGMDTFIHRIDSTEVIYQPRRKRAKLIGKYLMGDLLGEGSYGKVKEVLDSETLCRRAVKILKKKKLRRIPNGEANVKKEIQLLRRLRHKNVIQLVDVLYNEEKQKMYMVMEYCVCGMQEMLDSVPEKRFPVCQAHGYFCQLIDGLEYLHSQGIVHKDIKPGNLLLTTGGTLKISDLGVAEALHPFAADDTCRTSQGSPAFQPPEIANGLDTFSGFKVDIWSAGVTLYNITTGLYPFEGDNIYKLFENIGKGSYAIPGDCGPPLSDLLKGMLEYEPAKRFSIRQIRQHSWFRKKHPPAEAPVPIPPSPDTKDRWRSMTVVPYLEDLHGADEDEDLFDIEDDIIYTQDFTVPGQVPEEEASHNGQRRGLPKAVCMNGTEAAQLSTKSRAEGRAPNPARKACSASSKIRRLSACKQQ

Block 1
Cell line: A-375
Tested at: 100 µM
Time: 18 h
| SMILES | viability [%] |
| --- | --- |
| Cc1cccc([C@H](C)c2cnc[nH]2)c1C | 99.6 |
| O=C(O)[C@@H]1[C@H](C(=O)O)[C@H]2CC[C@@H]1O2 | 86.1 |
| CCC[C@H](NC(=O)[C@@H]1[C@H]2CCC[C@H]2CN1C(=O)[C@@H](NC(=O)[C@@H](NC(=O)c1cnccn1)C1CCCCC1)C(C)(C)C)C(=O)C(=O)NC1CC1 | 55.1 |
| CNCC(O)c1ccc(O)cc1 (centres unmarked) | 92.6 |
| CC[C@@]1(O)C(=O)OCc2c1cc1n(c2=O)Cc2cc3cc(O)ccc3nc2-1 | 59 |
| C[C@@H]1CC[C@@]2(OC1)O[C@H]1[C@@H](O)[C@H]3[C@@H]4CC[C@H]5C[C@@H](O[C@@H]6O[C@H](CO)[C@H](O[C@@H]7O[C@H](CO)[C@@H](O)[C@H](O[C@@H]8OC[C@@H](O)[C@H](O)[C@H]8O)[C@H]7O[C@@H]7O[C@H](CO)[C@H](O)[C@H](O[C@@H]8O[C@H](CO)[C@@H](O)[C@H](O)[C@H]8O)[C@H]7O)[C@H](O)[C@H]6O)[C@H](O)C[C@]5(C)[C@H]4CC[C@]3(C)[C@H]1[C@@H]2C | 8.08 |
| O=P1(N(CCCl)CCCl)NCCCO1 (centres unmarked) | 84.4 |
| C[C@]12CC[C@H]3[C@@H](CCC4=CC(=O)CC[C@@]43C)[C@@H]1CC[C@@H]2O | 94.8 |
| O=C(CCCN1CCC2(CC1)C(=O)NCN2c1ccccc1)c1ccc(F)cc1 | 29.4 |
| C[C@]12C=CC(=O)C=C1CC[C@@H]1[C@@H]2CC[C@@]2(C)[C@H]1CC[C@]2(C)O | 89.1 |

Block 2
SMILES: N/C(=N\[N+](=O)[O-])N/N=C\c1ccc(-c2cccc([N+](=O)[O-])c2)o1
Observed: enzyme activity
Action: inhibitor
Tested at: 0.5 µM
Baseline: control
| target | remaining activity |
| --- | --- |
| cGMP-dependent protein kinase 1, isoform beta (PRKG1, Homo sapiens, UniProt Q13976) | 95.8% |
| Inhibitor of nuclear factor kappa-B kinase subunit beta (IKBKB, Homo sapiens, UniProt O14920) | 86% |
| Serine/threonine-protein kinase OSR1 (OXSR1, Homo sapiens, UniProt O95747) | 102% |
| Protein kinase C alpha type (PRKCA, Homo sapiens, UniProt P17252) | 115% |
| Serine/threonine-protein kinase STK11 (STK11, Homo sapiens, UniProt Q15831) | 98.7% |
| Cyclin-dependent kinase 5, with p25 (CDK5, Homo sapiens, UniProt Q00535) | 96.5% |
| TGF-beta receptor type-1 (TGFBR1, Homo sapiens, UniProt P36897) | 96.6% |
| STE20/SPS1-related proline-alanine-rich protein kinase (STK39, Homo sapiens, UniProt Q9UEW8) | 91.8% |
| G protein-coupled receptor kinase 3 (GRK3, Homo sapiens, UniProt P35626) | 102% |
| cAMP-dependent protein kinase catalytic subunit alpha (PRKACA, Homo sapiens, UniProt P17612) | 93.3% |
| Serine/threonine-protein kinase Chk2 (CHEK2, Homo sapiens, UniProt O96017) | 104% |
| Serine/threonine-protein kinase Nek2 (NEK2, Homo sapiens, UniProt P51955) | 88.9% |

Block 3
Cell line: HEK-293T
Observed: pseudovirus infection
Method: FDA-approved drug library counter-screen
Organism: VSV pseudotyped with VSV-G
Tested at: 10 µM
Time: 16 h
Baseline: vehicle-treated
| SMILES | GFP-positive cells |
| --- | --- |
| C[C@H](N)[C@H](O)c1cccc(O)c1 | 93% |
| COC(=O)/C=C/C(=O)OC | 89.6% |
| O=c1cc[nH]c(=O)[nH]1 | 110% |
| Cc1c(O)cccc1C(=O)N[C@@H](CSc1ccccc1)[C@H](O)CN1C[C@H]2CCCC[C@H]2C[C@H]1C(=O)NC(C)(C)C | 112% |
| CCCNC(=O)NS(=O)(=O)c1ccc(Cl)cc1 | 74.9% |
| NC12CC3CC(CC(C3)C1)C2 | 93.2% |
| COC(=O)C1=C(C)NC(C)=C(C(=O)OCC(C)C)C1c1ccccc1[N+](=O)[O-] (centres unmarked) | 68.3% |
| COc1ccc(CN(C(=O)[C@@H](N)Cc2c(C)cc(C(N)=O)cc2C)[C@@H](C)c2ncc(-c3ccccc3)[nH]2)cc1C(=O)O | 113% |
| Nc1nc(Cl)nc2c1ncn2[C@H]1C[C@H](O)[C@@H](CO)O1 | 98.8% |
| O=C(c1ccc(OCCN2CCCCC2)cc1)c1c(-c2ccc(O)cc2)sc2cc(O)ccc12 | 97.5% |
| CC(=O)/N=c1/sc(S(N)(=O)=O)nn1C | 105% |
| CNS(=O)(=O)Cc1ccc2[nH]cc(CCN(C)C)c2c1 | 84.1% |

Single results of other studies
| Structure (SMILES) | target | observed | method | tested at | quantity | value |
| --- | --- | --- | --- | --- | --- | --- |
| CC(=O)Nc1c(C(C)=O)c(=O)n(C)c2nc(-c3ccc(Cl)cc3Cl)c(-c3ccc(Cl)cc3)cc12 | Serine/threonine-protein kinase PknB (pknB, Mycobacterium tuberculosis, UniProt P9WI81) | cell-free assay | competition with immobilised ligand | 1 µM | remaining binding | 100% |
| O=C(Nc1cccnn1)N1CCC(=Cc2cccc(Oc3ccc(C(F)(F)F)cn3)c2)CC1 | 5-hydroxytryptamine receptor 2C (HTR2C, Homo sapiens, UniProt P28335) | binding | radioligand binding | 10 µM | inhibition | 64.6% |
| CC(=O)N1CCC(c2ccc(C(=O)NC3=NCCN3)cc2C(F)(F)F)CC1 | Cyclin-dependent kinase 2 homolog (CRK2, Plasmodium falciparum, UniProt P61075) | cell-free assay | competition with immobilised ligand | 1 µM | remaining binding | 100% |
| CNC(=O)Nc1ccc2c(c1)CC[C@@]21OC(=O)N(CC(=O)N(Cc2ccc(F)cc2)[C@@H](C)C(F)(F)F)C1=O | Calcium-dependent protein kinase 1 (CDPK1, Plasmodium falciparum, UniProt P62344) | cell-free assay | competition with immobilised ligand | 1 µM | remaining binding | 83% |

Repeated from above (block 2):
| target | remaining activity |
| --- | --- |
| Serine/threonine-protein kinase OSR1 (OXSR1, Homo sapiens, UniProt O95747) | 102% |
| Protein kinase C alpha type (PRKCA, Homo sapiens, UniProt P17252) | 115% |
| Serine/threonine-protein kinase STK11 (STK11, Homo sapiens, UniProt Q15831) | 98.7% |
| Cyclin-dependent kinase 5, with p25 (CDK5, Homo sapiens, UniProt Q00535) | 96.5% |
| TGF-beta receptor type-1 (TGFBR1, Homo sapiens, UniProt P36897) | 96.6% |
